Measurements of several laboratories.
Parts stem from different laboratories: compare values within a part only.

Block 1
Target: Centromere-binding protein 1, full length, His-tagged (CBF1, Saccharomyces cerevisiae, UniProt P17106, residues 1-351)
UniProt P17106, sequence (whole entry, looked up): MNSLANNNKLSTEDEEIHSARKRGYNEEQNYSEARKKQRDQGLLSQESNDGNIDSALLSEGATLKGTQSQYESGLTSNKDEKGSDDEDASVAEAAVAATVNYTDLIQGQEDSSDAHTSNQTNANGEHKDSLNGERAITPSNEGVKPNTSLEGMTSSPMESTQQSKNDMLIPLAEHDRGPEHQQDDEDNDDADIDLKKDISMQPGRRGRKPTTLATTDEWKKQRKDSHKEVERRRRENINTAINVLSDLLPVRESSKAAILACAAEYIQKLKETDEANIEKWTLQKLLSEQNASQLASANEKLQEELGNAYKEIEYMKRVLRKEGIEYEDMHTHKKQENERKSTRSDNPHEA
Method: competition protein-binding microarray
Form: double-stranded DNA, one strand shown
Matrix: in vitro
Concentration: 2 µM
Notes: whole 60-bp probe, lowest competitor level
Together with: Pho4 competitor, 0.05 µM
Reading: higher = stronger binding
All sequences stand within: … GTCTTGATTCGCTTGACGCTGCTG
Sequence | fluorescence intensity
CATACCCAACCTTGGACTGTGGGTGAAGATATTTGT | 55.9 a.u.
AAAGCAGCTTCGGGGTGCGTGATGGAAAAATGCGAC | 159 a.u.
CCGTTTCTACCAGTACACGTGTAGCCAATTTTATCG | 1450 a.u.
TGTGTTAGAATACACAGCGTGCCGAGTTCCTGGTGC | 65.7 a.u.
CGACCACATATATGGAACGTGGTCGAAATACAAAGA | 157 a.u.
ATAGCAGCCTATGGACACGGGATACAGTACCAGCAA | 157 a.u.
CTTTCCCGATCTTGACGGGTGGGTGTAGCACATTTG | 50.4 a.u.
GAGACGAATGAAAAGCACGTGAAGTAACAAACTATT | 1650 a.u.
ACTACTTTGAAGAATTGCGTGATGGATATCAAACTT | 113 a.u.
AAATTACTAAGTTGTCAGGTGGGTGACGCCGTATGA | 151 a.u.
AGACAAGGCAACAAAGAAATGTCGTTTTTAATTTTT | 84.5 a.u.
ACATCAAGGCACAATCACCTGATGAGTCTGCCTTAG | 327 a.u.
AAAGCGGTAATTTGAGGAGTGGGTGCAGATATCTAT | 64.8 a.u.
GTCTTGTCTCATTGTCACATAACTTTCCCCACTTCA | 108 a.u.
CGTCCTAGAGATTACCACGTGTTTTCCATGAGGAAG | 1450 a.u.
GTCTTGTCTCATTGTCACTCCACTTTCCCCACTTCA | 86.3 a.u.
CAATGAAAGTGAAAGCACGTGTCGGATTGTCAACAA | 1770 a.u.
AAAGCGGTAATTTGTATGGTGGGTGCAGATATCTAT | 64.2 a.u.
CTTCTGTAAATTTGTCACTGTACTTGACGCGCCCCG | 72 a.u.
GTCTTGTCTCATTGTCACCCTACTTTCCCCACTTCA | 83.2 a.u.
CGTCCGAGAGCCCGCGACCTGATCCGACTTCAGGGT | 48.3 a.u.
CGTCCTAGTGATTGGATTGTGGGTGCCATGAGGAAG | 88.8 a.u.
TGTAAATATATCCATCACGTGAAATTAGTGGCGAGG | 3320 a.u.
CGGGGTTAAGTTTGTCACTTCACTTGCTTGCAGCAG | 76.1 a.u.
CGGGGTTAAGTTTGATCAGTGGGTGGCTTGCAGCAG | 76.9 a.u.

Block 2
Target: RING finger protein unkempt homolog, zinc fingers 1-6, GST-SBP tag (UNK, Homo sapiens, UniProt Q9C0B0, residues 30-357)
UniProt Q9C0B0, sequence (30-357, looked up): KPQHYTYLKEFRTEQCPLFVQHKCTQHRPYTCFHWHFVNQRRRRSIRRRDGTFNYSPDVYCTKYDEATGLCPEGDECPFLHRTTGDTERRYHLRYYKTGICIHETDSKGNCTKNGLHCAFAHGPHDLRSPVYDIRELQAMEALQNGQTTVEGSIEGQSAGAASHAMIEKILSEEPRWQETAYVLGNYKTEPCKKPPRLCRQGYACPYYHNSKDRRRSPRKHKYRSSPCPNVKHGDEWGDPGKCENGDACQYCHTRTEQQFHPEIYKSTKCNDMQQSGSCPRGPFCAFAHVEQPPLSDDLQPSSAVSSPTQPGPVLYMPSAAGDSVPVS
Method: RNA Bind-n-Seq
Form: RNA
Matrix: in vitro
Concentration: not given
Notes: RNA with constant flanks, human-mouse chimeric sites, ends assumed
Baseline: input RNA pool
Reading: higher = stronger binding
All sequences stand within: GGGAGUUCUACAGUCCGACGAUC … CAACAGAGGAUUGAGCAUCA
Sequence | bound/input enrichment
CUGAGGAUACCACUGAAGAGACCUUAAAAGAAUCAUUUGAGGGCUCUGUUCGUGCAAAGGAUAGUUAUGAUCGGGAAACUGGUUCUUCCAAAGGGUUUGGUUUUGUAAGACUUCAACGUG | 0.309 ratio
UGGCGCCUGCGCUCCCCACUCGUGUUUGUAUUUUUAUUUUUAUAAGACAUGUGUAUUUACAAUUGAGCUUUUGUUACAUAAUGCUGAAAUGCUACUGGAGAUUAUGAAAAAUGUUUCAAU | 0.265 ratio
CACAGAGCAGCACCUACCCCCUCCUCCUUUCCACACCUGCAAACUCUUUUACUUGGGCUGAAUAUUUAGUGUAAUUACAUCUCAGCUUUUGAGGGCUCCUGUGGCAAUUCCCGGAUUAAA | 1.11 ratio
ACCUCCCCCUCCCGCCUCACCCCACCCCCGCUUUUUGGAAAGUUUUUGGCGUUUCUUUUCCUUCCCCAUACAAAGUGAUUACAGUUUCCCCCGCAAGUGGGGCUUGAUUCACCCUUCGGA | 4.45 ratio
CGCUGGCCCAAGCUGAUGGACUCUGAUGGCCUCCAUCUCUCAGGCACGUGUGCCUUCUCUUAGUCCCUGUUUUCGGGUCACAAAGCUUCUCAGUACUGUGGUUUGAAAGCAGUUAUGUUG | 0.332 ratio
AAAGAACUACUGAGGCAAGGCAGCAAAUUUAGAAGAAACAUUUCAACACUAUUAAUAGAGUUAGGAUUCCAAAUUAAAAAGAAAACUAAGACAUUAUACAUCAACAAAGCCAAUGUGUGG | 24.5 ratio
GGAAGUACAAUGAUGGAAAUAGAUGGCGACAAAGGCAAGCAGGGCGGGCCCACCUACUACAUAGACACCAAUGCCCUCCGCGUGCCCAGGGAGAAUAUGGAGGCCAUCUCACCACUCAAG | 0.221 ratio
CACAGAGGAGAUCUGCUGUUCCUCACGAAUUUCCGGGAAGACCCAAUCAGAGCUGGUGAAAUAGUUGUUUUUAAAGUUGAAGGAAGAGACAUUCCGAUAGUUCACAGAGUAAUCAAGGUU | 2.04 ratio
AAUUUCCUGUCAUACUUUUUAGACAUUCACAUCAGACGCCUUACUACCCUGGCCACAUUCUAGGUUUGUGUUAUUUCUCAGCUAUGGAUAUGAUCAAAGAGUGAAAAUGCUUAACUAAUG | 0.547 ratio
CACAGAGCAGCACCUACCCCCUCCUCCUUUCCACACCUGCAAACCCUUUUACUUGGGCUGAAUAUUUAGUGUAAUUACAUCUCAGCUUUUGAGGGCUCUGUGGCAAAUUCCCGGAUUAAA | 0.976 ratio
AAAUCGUGUGUGUCCAAUAUUGAAAGUACUUUAUCUGCACUCCAGUAUGUAAGCAGUAUAGUAGUUUCUUUAGAGAAUAGGUCUGCCAUUGUAAAGUACAAUGCAAGCUUAGUCACUCCA | 0.945 ratio

Block 3
Target: RNA binding protein fox-1 homolog 2, RRM domain, GST-SBP tag (RBFOX2, Homo sapiens, UniProt O43251-10, residues 100-194)
Method: RNA Bind-n-Seq
Form: RNA
Matrix: in vitro
Concentration: 365 nM
Notes: natural RNA segment, single round, ends assumed
Baseline: no-protein control
Reading: higher = stronger binding
All sequences stand within: GGGAGUUCUACAGUCCGACGAUC … UGGAAUUCUCGGGUGCCAA
Target sequence (chain): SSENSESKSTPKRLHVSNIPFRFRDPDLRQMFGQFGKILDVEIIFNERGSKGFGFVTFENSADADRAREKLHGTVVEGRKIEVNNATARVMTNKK
Sequence | RBNS enrichment (R)
GUAGGGAAGGAGGGACUGCUCUGCAGGAAGUGGUAUCUGUUCUUUAGACUGCUCUCCUUAGGGAGGAGCCAAGAGGGAUUUCCAUGCACACUGCCCAUGGUGGGUUUAAG | 0.468
GCCUUCCUAGGGUUUAAAGAACAGCAUUCAAAAUUCCCCGUCCUGUCAGUGUUUGCCUUCGCACCUCCUCCCCUAAAGCAGCGCGGGGGGCAAAUAAGACCCCACCCCUC | 1.81
AGUGCGUUCUGUGAUCGCCAAGUUCAAAGCUGUGCACAUGUGGACACUCAAUAAAUGUUCAUUGGUGACGAGAAGCCUCCUGCGUGGUCUGCCCUGCACCUGCUCUCUCC | 1.26
AAGUUCCUUUUUCAUGAACACACCCGAGAAAUCUUAAAUAGACACUUUGCAAUAUUUAAGAACCUAAUGCUGUUUAAUUUUGGUACAGCUUCCACAUUGCAUGUUCACUU | 9.35
GGUGAGCGCCACAUGAGUGUAGAGGCACUAUAUGACGUAGUGUACUGAGCAUGCAACGCUGCUGCCGUCCUUGUCUGUGGUUUCAGUUUGUAAAACUGCUAAGCCAUUCU | 0.311
UCUUUCUUUUGGUGACUUACACCACAUGUAAUGACGCUAUGACUAAUUCUGCUCCCAAGCCCUUGUAUCUUGGGCUUCAUUUUAGGCUCAUGUGUCAGAUCUGCAUGCAU | 4
ACCCUUCCCCUAGUUUUGCUGAGUUAUUUGUUGUCCAGAACCUGUUGGCUAACCCCACUGAAGGCACAUUUCUAGAUGAUGCCGUGUGUGGUCAAUACAUUGCUUUCAUG | 0.431
UGUCGAGGUUUGCAAAGACUGACUUCAAACUACUGUACGUUUUUUUCAAGUGCUAAAAAAAAAAUUAAACCAAGCAGCUUAACCAUGGUUUUGAUUAUUCCUCUAAGAUG | 0.603
UACAAGACACACCUCAAGCUUUACCAGCUCAAGCGUCUGUCCUUGGAGGCUCAGCAGAUUUAUUUAAUUGGAAUCCACUCUUAUUCUUCAUUUCAUUAGUUGGACUUUUA | 0.276
CCAAUGGCUCAUCUCUAGGGUAAUUUUAUGUCUGAAAGUGUAUGCAGUUGGGUCAGAGCAUGACCUUUAAGAUAGCCUCUCUCAGCUAACAUAUUUAUGAAGAUGAGGCC | 0.512
CACAGCUUUUUCAAAUUACCAGUAAUUUGUCUUGUUUCUAAGGAGUGGGCCAGUACUAACUUAACUUGGUGUUCAGCAAGGGAUGCAGACGGAGAGCUCCCUUCUGCAGG | 0.651
CCAGCCUCCACCCGCACAAAGGGGCUCUAAAUCCCAGGCCUCAUCUCCCCACUGGCAGUCCGUGCUCAGGCUGGCUCUUAGGCCUGCGGCUUUGAUGGAGGAGGUAUUGU | 1.12

Block 4
Target: Histone acetyltransferase KAT6A, winged helix 2, GST fusion (KAT6A, Homo sapiens, UniProt Q92794, residues 85-181)
Method: protein binding microarray
Form: double-stranded DNA, one strand shown
Matrix: in vitro
Concentration: not given
Notes: 8-mer, flanks averaged, mean of 2 arrays, mostly near background
Baseline: not given
Reading: higher = stronger binding
Construct (chain): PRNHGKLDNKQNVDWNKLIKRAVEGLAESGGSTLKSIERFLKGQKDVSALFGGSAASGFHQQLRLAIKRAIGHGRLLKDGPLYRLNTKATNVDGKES
Sequence | E-score
TGGTAGAA | -0.0312
AACGCCGG | 0.0704
TGTACCAA | -0.0463
AGAGTGGC | -0.0336
AACAACTA | -0.188
GGCTAGCA | -0.0748
CTCGCTTC | 0.179
AAATGGGA | -0.0911
ACACCCGA | 0.145
CAGGATGC | 0.082
TGGACGAA | -0.00924
TGAGTAAA | 0.0416
GTCATTTA | -0.201
CCTCGTCG | 0.0714
CATCCAAG | 0.122
AGCAACCG | 0.0896

Excerpt of the above (block 4):
Sequence | E-score
AACGCCGG | 0.0704
TGGTAGAA | -0.0312
CAGGATGC | 0.082
AGCAACCG | 0.0896
GTCATTTA | -0.201
TGTACCAA | -0.0463
CCTCGTCG | 0.0714
GGCTAGCA | -0.0748
TGAGTAAA | 0.0416
